Experimental data gathered from unrelated publications.
Values joined by “and” are separate records of one study, mostly repeats; a detail may differ. ± marks the error that the study gave. Values after ≈ are worked out from the molar mass of the structure shown.

CCOC(=O)C1(Cc2ccc(C#N)cc2)Oc2cc(F)ccc2N(Cc2ccc(C#N)cc2)C1=O (centres unmarked)
inhibition (Amaranthus retroflexus; fresh weight, greenhouse postemergence; postemergence, 150 g ai/ha, 21 days): 47.1 ± 4.24%

[O-][N+]1=C(c2ccsc2)C2=NCCCN2c2ccccc21
MIC50 (Bacteroides fragilis; microbial growth): 0.25 µg/mL (≈ 0.882 µM)

C[C@@H]1NC(=O)[C@@H](CCCN)NC(=O)[C@H](Cc2ccccc2)NC(=O)[C@@H](Cc2ccccc2)NC(=O)[C@H](Cc2ccccc2)NC(=O)[C@@H](CCCN)NC1=O
IC90 (Balamuthia mandrillaris; parasite growth, ATP luminescence): > 20 µM

CC(O)CN(CC(C)O)CC(C)O.O=C(O)C(Cl)Cl (centres unmarked)
inhibition (Amaranthus retroflexus; herbicidal activity; 15 mg/mL, 21 days, post-emergence greenhouse): -53%

CCOC(=O)C1(Cc2ccc([N+](=O)[O-])cc2)Oc2cc(F)ccc2N(Cc2ccc([N+](=O)[O-])cc2)C1=O (centres unmarked)
inhibition (Amaranthus retroflexus; fresh weight, greenhouse postemergence; postemergence, 150 g ai/ha, 21 days): 54.4 ± 4.98%

CC(C)C[C@H](NC(=O)[C@H](CC(=O)O)NC(=O)[C@@H](NC(=O)[C@H](CCC(=O)O)NC(=O)[C@H](CCCCN)NC(=O)[C@H](Cc1ccc(O)cc1)NC(=O)[C@H](CCCCN)NC(=O)[C@H](Cc1c[nH]cn1)NC(=O)CNC(=O)CN)[C@@H](C)O)C(N)=O
selectivity index (hepatitis C virus; Huh-7 ET replicon; baseline: TC50 over IC50): > 23

CN(CCO)CCO.O=C(O)C(Cl)Cl
inhibition (Amaranthus retroflexus; herbicidal activity; 15 mg/mL, 21 days, pre-emergence greenhouse): 0%

CCOC(=O)C1(Cc2cccc(C(C)C)c2)Oc2cc(F)ccc2N(Cc2cccc(C(C)C)c2)C1=O (centres unmarked)
inhibition (Amaranthus retroflexus; fresh weight, greenhouse postemergence; postemergence, 150 g ai/ha, 21 days): 56.3 ± 4.77%

CC[C@H](C)[C@H](NC(=O)[C@H](CC(C)C)NC(=O)[C@H](CC(=O)O)NC(=O)[C@H](CCCNC(=N)N)NC(=O)[C@H](Cc1c[nH]c2ccccc12)NC(=O)[C@@H](N)CC(C)C)C(=O)N[C@@H](CS)C(=O)N[C@@H](CC(C)C)C(=O)N[C@@H](CS)C(=O)N[C@@H](CCCNC(=N)N)C(=O)N[C@@H](CC(N)=O)C(=O)N[C@@H](CCCNC(=N)N)C(=O)N[C@@H](CCCNC(=N)N)C(=O)N[C@@H](CS)C(=O)N[C@@H](CC(N)=O)C(=O)N[C@@H](CCCNC(=N)N)C(=O)NCC(=O)N[C@@H](CCC(N)=O)C(=O)N[C@@H](CC(C)C)C(=O)N[C@@H](Cc1ccccc1)C(=O)N1CCC[C@H]1C(=O)NCC(=O)N[C@@H](Cc1c[nH]c2ccccc12)C(=O)N[C@@H](CS)C(=O)N1CCC[C@H]1C(=O)NCC(=O)N[C@@H](Cc1c[nH]c2ccccc12)C(=O)N[C@@H](Cc1c[nH]c2ccccc12)C(=O)N[C@@H](CC(C)C)C(=O)N[C@@H](CCCNC(=N)N)C(=O)N[C@@H](CS)C(=O)N[C@@H](CS)C(=O)N[C@@H](CCCNC(=N)N)C(=O)N[C@@H](CCCNC(=N)N)C(N)=O
bactericidal rate (Acinetobacter baumannii; colony count; carbapenem-resistant, PBS; 20 µg/mL, 2 h): 93.8%

O=C(O)CN(CC(=O)O)CP(=O)(O)O
meropenem MIC (Klebsiella aerogenes; VIM-1 producer; 32 µg/mL, with: meropenem): ≤ 0.25 µg/mL

COc1ccc(C2=[N+]([O-])c3ccccc3N3CC(C)(C)CN=C23)cc1
MIC90 (Bacteroides fragilis): 0.5 µg/mL

CC(C)[C@H]1NC(=O)[C@H](Cc2ccccc2)NC(=O)[C@@H](C(C)C)NC(=O)[C@@H](C)NC(=O)[C@H](CO)NC(=O)[C@@H](Cc2c(-c3ccc(-c4ccc5ccccc5c4)cc3)[nH]c3ccccc23)NC(=O)[C@@H](C)NC1=O
MIC90 (Vibrio vulnificus; broth dilution): > 50 µM

CCc1nn(C)c2nc(-c3ccc(C(=O)O)cc3)nc(NCc3ccccc3)c12
inhibition (Cryptosporidium parvum; parasite growth, immunofluorescence imaging; HCT-8, Iowa; 74.1 nM): -1.94% and -14.1%

CCN(CC)CC#CCNc1ccnc2cc(Cl)ccc12
resistance index (Plasmodium falciparum; parasite growth, LDH; Dd2; baseline: IC50 Dd2 over IC50 3D7): 1.3

[O-][N+]1=C(c2ccc(Cl)cc2)C2=NCCCN2c2ccccc21
MIC50 (Bacteroides fragilis; microbial growth): 1 µg/mL (≈ 3.21 µM)

CCOC(=O)C1(Cc2ccccc2)Oc2cc(OC)ccc2N(Cc2ccccc2)C1=O (centres unmarked)
inhibition (Amaranthus retroflexus; fresh weight, greenhouse postemergence; postemergence, 150 g ai/ha, 21 days): 52.3 ± 3.78%

CC[C@H](C)[C@H](NC(=O)[C@H](CC(N)=O)NC(=O)[C@H](CC(C)C)NC(=O)[C@@H](NC(=O)[C@@H](N)Cc1ccccc1)[C@@H](C)CC)C(=O)N[C@@H](CC(C)C)C(=O)N[C@@H](CC(=O)O)C(=O)N[C@@H](CCCCN)C(N)=O
geometric mean MIC (all tested microorganisms): 256 µM

COc1ccc(Cn2c3cc(=O)n(Cc4cccc(Cl)n4)c(C)c3c(=O)n2-c2ccccn2)cc1
normalized viral replication (human respiratory syncytial virus; recombinant reporter virus; concentration not given, scale 0 to 100, with: adenosine 11.1 µM): 0

C#CCCCC(=O)N[C@H]1CCOC1=O
inhibition (Escherichia coli; LuxR reporter, antagonist; DH5α sensor strain; 100 µM, with: OHHL 200 nM): 45 ± 2%

FC(F)(F)c1cccc(CNc2nc(NC3CCN(Cc4ccccc4)CC3)c3nc[nH]c3n2)c1
mRNA fold change (Cryptococcus neoformans; RNA-seq, measured: YMR1 (CNAG_00390); 48 µg/mL, 3 h; baseline: untreated): 1.54

NCCc1cccc(-c2nc(=O)c3ccccc3s2)n1
EC50 (Acinetobacter baumannii; cell growth, inhibitor; NCTC 13424 XDR; 5% CO2): > 100 µM

O=S(=O)(CCC(F)(F)F)N[C@H]1CC[C@H](Nc2ncc3c(-c4ccccn4)n[nH]c3n2)CC1
EC50 (Leishmania donovani; cell growth; promastigotes, LdBOB; life-cycle stage comparison): 0.101 ± 0.008 µM

CCCC/C=C/C(=O)N[C@@H](Cc1csc2ccccc12)C(=O)N[C@H]1COC(=O)[C@@H]2C[C@@H](C)CN2C(=O)[C@H](C)NC(=O)[C@@H]2CCCCN2C(=O)[C@@H]2CCCN2C1=O
RNA release (human coronavirus OC43; Huh-7 CLPP knock-out 1; concentration not given, unit not given; baseline: DMSO): 0.239 and 0.273 and 0.285

COc1ccc(C2=[N+]([O-])c3ccccc3N3CCN=C23)cc1
MIC90 (Bacteroides fragilis): ≤ 0.06 µg/mL

CC[C@H](C)CCCCC(=O)N[C@@H](CCN)C(=O)N[C@H](C(=O)N[C@@H](CCN)C(=O)N[C@H]1CCNC(=O)[C@H]([C@@H](C)O)NC(=O)[C@H](CCN)NC(=O)[C@H](CCN)NC(=O)[C@H](CC(C)C)NC(=O)[C@@H](CC(C)C)NC(=O)[C@H](CCN)NC1=O)[C@@H](C)O
MIC fold change (Escherichia coli; daily serial passaging; ATCC 8739; highest sub-MIC, 37 days; baseline: initial MIC): 1.42

Cc1cc(C(=O)Nc2nc3cccc(C)c3n2[C@H]2CCCCN(C(=O)/C=C/CN(C)C)C2)ccn1
cell cycle distribution (Trypanosoma brucei; propidium iodide flow cytometry, measured: S phase; bloodstream CLK1 over-expression induced; concentration not given): 14.6% and 15.8% and 15%

CN(C(=O)c1ccn2ncc(-c3ccc(C(N)=O)cc3)c2c1)c1ccc(C#N)cn1
faecal Nluc luminescence (Cryptosporidium parvum; UGA1 Nluc, IFN-gamma knockout C57BL/6 mice, faeces; oral, 10 mg/kg daily, 384 h post infection, treatment days 11-17; higher means more parasites): 137 a.u. and 55 a.u. and 320 a.u. and 2740 a.u. and 206 a.u.

CC(C)[C@H]1NC(=O)[C@H](Cc2ccccc2)NC(=O)[C@@H](C(C)C)NC(=O)[C@@H](C)NC(=O)[C@H](C)NC(=O)[C@@H](Cc2c(-c3ccc(-c4ccc(-c5ccccc5)cc4)cc3)[nH]c3ccccc23)NC(=O)[C@@H](CO)NC1=O
MIC90 (Vibrio vulnificus; broth dilution): > 50 µM

C[C@@H]1NC(=O)[C@H](C)NC(=O)[C@@H](NC(=O)[C@@H]2CCCN2C(=O)[C@H](CC(N)=O)NC(=O)[C@H](Cc2ccc(O)cc2)NC(=O)[C@@H](N)Cc2cccc(CN)c2)CSC(=O)[C@H](Cc2cccc(F)c2)NC(=O)[C@H](Cc2ccc(O)cc2)NC1=O
biofilm inhibition (Staphylococcus epidermidis; safranin staining; RP62A; 10 µM, 24 h, 37 °C; baseline: DMSO control): 43.5%

For quick reference, copied from above:
[O-][N+]1=C(c2ccsc2)C2=NCCCN2c2ccccc21
MIC50 (Bacteroides fragilis; microbial growth): 0.25 µg/mL (≈ 0.882 µM)

CC(O)CN(CC(C)O)CC(C)O.O=C(O)C(Cl)Cl (centres unmarked)
inhibition (Amaranthus retroflexus; herbicidal activity; 15 mg/mL, 21 days, post-emergence greenhouse): -53%

CC(C)C[C@H](NC(=O)[C@H](CC(=O)O)NC(=O)[C@@H](NC(=O)[C@H](CCC(=O)O)NC(=O)[C@H](CCCCN)NC(=O)[C@H](Cc1ccc(O)cc1)NC(=O)[C@H](CCCCN)NC(=O)[C@H](Cc1c[nH]cn1)NC(=O)CNC(=O)CN)[C@@H](C)O)C(N)=O
selectivity index (hepatitis C virus; Huh-7 ET replicon; baseline: TC50 over IC50): > 23

CCOC(=O)C1(Cc2ccccc2)Oc2cc(OC)ccc2N(Cc2ccccc2)C1=O (centres unmarked)
inhibition (Amaranthus retroflexus; fresh weight, greenhouse postemergence; postemergence, 150 g ai/ha, 21 days): 52.3 ± 3.78%
